# Assay results pooled from the literature.
# Protocols differ between the studies behind these lines. ± gives the spread as reported.
# Sequence of UniProt Q13561 (whole entry, looked up): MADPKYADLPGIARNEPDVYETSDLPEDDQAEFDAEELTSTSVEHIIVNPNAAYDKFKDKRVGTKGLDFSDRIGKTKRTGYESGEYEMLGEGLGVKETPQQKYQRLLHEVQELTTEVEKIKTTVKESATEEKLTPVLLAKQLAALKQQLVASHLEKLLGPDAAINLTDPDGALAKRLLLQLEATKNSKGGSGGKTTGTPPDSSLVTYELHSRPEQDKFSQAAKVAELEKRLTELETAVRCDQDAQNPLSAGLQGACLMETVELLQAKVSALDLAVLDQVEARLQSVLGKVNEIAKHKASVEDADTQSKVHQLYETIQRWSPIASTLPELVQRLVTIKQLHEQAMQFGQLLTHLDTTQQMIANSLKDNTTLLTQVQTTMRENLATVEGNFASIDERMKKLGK
Structure (SMILES),target or system,assay,test system,conditions,scale,endpoint,value
Oc1ccc(C2(c3ccc(O)cc3)c3ccccc3-c3ccccc32)cc1,HepG2 spheroids,Hoechst flow cytometry,,"10 µM, 96 h",,G1 phase cells,70.7 ± 3.4%
COc1ccc2c(c1)[nH]c1c(C)nccc12,DU-145,"bisulfite pyrosequencing, refers to: RASSF1A promoter CpG site 2",,"10 µM, 16 h",,DNA methylation,92.5%
COc1c(C)c2c(c(O)c1C/C=C(\C)CCC(=O)O)C(=O)OC2,lung cancer cell lines,cell proliferation,,average over lines,,IC50,0.631 µM
COc1cc(CCC[P+](c2ccccc2)(c2ccccc2)c2ccccc2)c(OC)c2c1OCO2.[I-],SF-268,SRB,,,,GI50,-5.67 log M
CC[C@H](C)[C@H](NC(=O)[C@H](Cc1ccccc1)NC(=O)[C@H](CCC(=O)O)NC(=O)[C@H](CCCNC(=N)N)NC(=O)[C@H](C)NC(=O)[C@H](C)NC(=O)[C@H](CCC(N)=O)NC(=O)[C@H](CCC(=O)O)NC(=O)[C@H](CCC(=O)O)NC(=O)[C@H](CC(C)C)NC(=O)[C@H](Cc1ccc(O)cc1)NC(=O)[C@H](CO)NC(=O)[C@H](CO)NC(=O)[C@@H](NC(=O)[C@H](CC(=O)O)NC(=O)[C@H](CO)NC(=O)[C@@H](NC(=O)[C@H](Cc1ccccc1)NC(=O)[C@@H](NC(=O)CNC(=O)[C@H](CCC(=O)O)NC(=O)[C@H](C)NC(=O)CCc1c[nH]cn1)[C@@H](C)O)[C@@H](C)O)C(C)C)C(=O)N[C@@H](C)C(=O)N[C@@H](Cc1c[nH]c2ccccc12)C(=O)N[C@@H](CC(C)C)C(=O)N[C@H](C(=O)N[C@@H](CCCNC(=N)N)C(=O)NCC(=O)N[C@@H](CCCNC(=N)N)C(=O)N[C@@H](CCCCNC(=O)COCCOCCNC(=O)COCCOCCNC(=O)CC[C@H](NC(=O)CCCCCCCCCCCCCCCCC(=O)O)C(=O)O)C(=O)NCC(=O)NCC(=O)N[C@@H](CO)C(=O)N[C@@H](CCCCNc1c(NCCCCCN(O)C(=O)CCC(=O)NCCCCCN(O)C(=O)CCC(=O)NCCCCCN(O)C(C)=O)c(=O)c1=O)C(=O)O)C(C)C [zirconium-89 labelled],,ex vivo gamma counting,"rat, femur","subcutaneous, 3 nmol/kg, 168 h, together with: [89Zr]-labelled peptide",,tissue uptake,0.14 %ID/g
CN1CCN(C2(CNC3CCN(c4cccc(-c5cc6cc(F)ccc6[nH]5)c4)CC3)CCC2)CC1,NCI-H460,,,,,GI50,2.04 µM
COc1cc(Nc2ncc(F)c(Nc3ccc4c(n3)NC(=O)C(C)(C)O4)n2)cc(OC)c1OC,phosphodiesterase 1,"enzyme activity, inhibitor",,,,IC50,> 10 µM
C[C@H]1CN(c2n[nH]c3nc(N[C@H]4CC[C@H](NS(=O)(=O)CCC(F)(F)F)CC4)ncc23)CCO1,"Dynactin subunit 2 (DCTN2, Homo sapiens, UniProt Q13561)","Kinobeads competition, refers to: DCTN2",,"0.032 µM, unit not given",baseline: vehicle,remaining binding,0.92
CC(C)N1CCC(NC2CCN(c3cccc(-c4cc5cc(F)ccc5[nH]4)c3)CC2)CC1,SF-295,,,,,GI50,1.87 µM
Nc1ncnc2c1ncn2[C@@H]1O[C@@H]2COP(=O)(O)O[C@H]3[C@@H](O)[C@H](n4cnc5c(=O)[nH]cnc54)O[C@@H]3COP(=O)(O)O[C@H]2[C@H]1O,HFF-1,"RNA sequencing Reactome analysis, refers to: Reactome R-HSA-197264",,together with: West Nile virus infection,"baseline: West Nile virus infected cells, upregulated pathway",pathway fold enrichment,9.69
C/C=C(/C)C(=O)O[C@H]1C(C)=C2[C@H]([C@@H]1OC(=O)CCCCCCC)[C@@](C)(OC(C)=O)C[C@H](OC(=O)CCC)[C@@]1(O)[C@H]2OC(=O)[C@@]1(C)O,HEK-293T,"RNA-seq GSEA, refers to: Hallmark peroxisome",,"500 nM, 6 h",direction not given,normalized enrichment score,-1.03
CC[C@H](C)[C@@H]1NC(=O)[C@@H]2CCCN2C(=O)[C@H](CC(C)C)NC(=O)[C@H](CC(C)C)NC(=O)CNC(=O)[C@@H](NC(=O)[C@@H](NC(=O)[C@H](CC(=O)O)NC(=O)CNC(=O)[C@@H](NC(=O)[C@H](C)NC(=O)CNC(=O)[C@H](CCCCN)NC(=O)[C@H](CC(C)C)NC(=O)[C@H](CC(C)C)NC(=O)[C@H](CCCCN)NC(=O)CNC(=O)[C@@H](NC(=O)[C@@H](N)CC(C)C)C(C)C)C(C)C)C(C)C)CSSC[C@@H](C(=O)O)NC1=O,,"RNA-seq, refers to: Tnfsf11","mouse, traumatic brain injury model, frontal cortex and hippocampus",dose not given,baseline: TBI alone,log2 fold change,-3.9
COc1c(CCC[P+](c2ccccc2)(c2ccccc2)c2ccccc2)cc2c(c1OC)OCO2.[I-],SF-295,SRB,,,,TGI,-5.08 log M

# A few entries again:
Structure (SMILES),target or system,assay,test system,conditions,scale,endpoint,value
C[C@H]1CN(c2n[nH]c3nc(N[C@H]4CC[C@H](NS(=O)(=O)CCC(F)(F)F)CC4)ncc23)CCO1,"Dynactin subunit 2 (DCTN2, Homo sapiens, UniProt Q13561)","Kinobeads competition, refers to: DCTN2",,"0.032 µM, unit not given",baseline: vehicle,remaining binding,0.92
